Measurements pooled from the literature.
Compare with care: the assays were run in different laboratories.

SMILES	test	system	conditions	how to read	endpoint	result
CN(C)C(=N)N=C(N)N	measured: any adverse event	healthy human	oral, dose not given	reference: subjects	subjects with adverse event	10%
CC(=O)CC(c1ccccc1)c1c(O)c2ccccc2oc1=O (stereo not shown)	–	human	concentration not given, trial 1	–	subjects nervous system disorders	6%
CN1C(=O)[C@@H](NC(=O)c2nnc(Cc3ccccc3)[nH]2)COc2cccnc21	–	human, fasted	oral, 800 mg single dose	–	subjects with headache	16.7%
CN(Cc1cnc2nc(N)nc(N)c2n1)c1ccc(C(=O)N[C@@H](CCC(=O)O)C(=O)O)cc1	measured: Headache	healthy human	oral, dose not given	–	subjects with adverse event	0%
CO[C@H]1/C=C/O[C@@]2(C)Oc3c(C)c(O)c4c(O)c(c(/C=N/N5CCN(C)CC5)c(O)c4c3C2=O)NC(=O)/C(C)=C\C=C\[C@H](C)[C@H](O)[C@@H](C)[C@@H](O)[C@@H](C)[C@H](OC(C)=O)[C@@H]1C	–	healthy humans	oral, dose not given	–	subjects with ≥1 adverse events	79.2%
C=CC(=O)NC1CCN(c2ncc3ncnc(Nc4ccc(Oc5ccc6c(c5)ncn6C)c(C)c4)c3n2)CC1	–	healthy male human	oral, 60 mg, 2 weeks, maximum CTCAE grade 5	–	subjects with adverse events	0%
CC(C)c1c(C(=O)Nc2ccccc2)c(-c2ccccc2)c(-c2ccc(F)cc2)n1CC[C@@H](O)C[C@@H](O)CC(=O)O	measured: Vertigo	healthy human	oral, dose not given	–	subjects with adverse event	0%
CC(=O)N(C)[C@H]1CCN(C(=O)c2cnc3c(c2)C[C@](C)(c2ccc(F)cc2)N3)C1	–	healthy male human	oral, dose not given, all doses pooled	–	subjects with severe AEs	4.2%
CC[C@H](C)[C@H](NC(=O)[C@H](Cc1ccccc1)NC(=O)[C@H](CCC(=O)O)NC(=O)[C@H](CCCCNC(=O)COCCOCCNC(=O)COCCOCCNC(=O)CC[C@H](NC(=O)CCCCCCCCCCCCCCCCC(=O)O)C(=O)O)NC(=O)[C@H](C)NC(=O)[C@H](C)NC(=O)[C@H](CCC(N)=O)NC(=O)CNC(=O)[C@H](CCC(=O)O)NC(=O)[C@H](CC(C)C)NC(=O)[C@H](Cc1ccc(O)cc1)NC(=O)[C@H](CO)NC(=O)[C@H](CO)NC(=O)[C@@H](NC(=O)[C@H](CC(=O)O)NC(=O)[C@H](CO)NC(=O)[C@@H](NC(=O)[C@H](Cc1ccccc1)NC(=O)[C@@H](NC(=O)CNC(=O)[C@H](CCC(=O)O)NC(=O)C(C)(C)NC(=O)[C@@H](N)Cc1cnc[nH]1)[C@@H](C)O)[C@@H](C)O)C(C)C)C(=O)N[C@@H](C)C(=O)N[C@@H](Cc1c[nH]c2ccccc12)C(=O)N[C@@H](CC(C)C)C(=O)N[C@H](C(=O)N[C@@H](CCCNC(=N)N)C(=O)NCC(=O)N[C@@H](CCCNC(=N)N)C(=O)NCC(=O)O)C(C)C	–	healthy human	subcutaneous, 0.25 to 1.5 mg weekly, 16 weeks	–	subjects withdrawn for adverse events	2.4%
CC(C)(C(=O)N1CCOc2c(C#N)cncc2C1)C(F)F	measured: vessel puncture site haemorrhage	human, both sexes	oral, 20 mg once daily, 14 days, multiple ascending dose	–	subjects with TEAE	0%
C[C@H]1CN(C(=O)CC#N)[C@]12CCN(c1ncnc3[nH]ccc13)C2	–	healthy human	oral, 6 mg single	–	subjects with serious TEAEs	0%
Cc1cc(-c2nccc3c2ccn3CC(=O)Nc2ccc(-c3cnccn3)cn2)ccn1	–	human	5 mg once daily, multiple ascending dose	–	subjects with Folliculitis adverse event	12.5%
COC(=O)N[C@H](C(=O)N1CCC[C@H]1c1ncc(-c2cc(F)c3c(c2)O[C@@H](c2cnc(C4CC4)s2)n2c-3cc3cc(-c4cnc([C@@H]5CCCN5C(=O)[C@@H](NC(=O)OC)C(C)C)[nH]4)ccc32)[nH]1)C(C)C	–	healthy adult human	oral, 180 mg, 6 days, compound alone	–	subjects with upper abdominal pain	6.3%
C=C(C)[C@@H]1CC[C@]2(NCCN3CCS(=O)(=O)CC3)CC[C@]3(C)[C@H](CC[C@@H]4[C@@]5(C)CC=C(C6=CC[C@@](CF)(C(=O)O)CC6)C(C)(C)[C@@H]5CC[C@]43C)[C@@H]12	–	healthy human volunteers	oral, 500 mg, 7 days	–	subjects with musculoskeletal disorders	17%
O=C(COc1ccc(Cl)cc1)NC12CC(c3nnc([C@H]4C[C@@H](OC(F)(F)F)C4)o3)(C1)C2	–	humans	concentration not given	–	subjects with drug-related TEAE	71.4%
C[C@@H](N)c1cc(Cl)ccc1Cn1c(=S)[nH]c(=O)c2[nH]ccc21	–	human	oral, 2.5 mg single dose	–	subjects with headache	10%

Some of these lines once more:
SMILES	test	system	conditions	how to read	endpoint	result
CC(=O)N(C)[C@H]1CCN(C(=O)c2cnc3c(c2)C[C@](C)(c2ccc(F)cc2)N3)C1	–	healthy male human	oral, dose not given, all doses pooled	–	subjects with severe AEs	4.2%
